Published values gathered from unrelated publications.
Lines come from different studies, so protocols differ.
rep R3428I 3C-like proteinase: Replicase polyprotein 1ab, 3C-like proteinase (rep, Severe acute respiratory syndrome-related coronavirus, UniProt P0C6X7, R3428I)

Sequences of proteins named here, by UniProt entry; tags and fusion partners are left off. Residues count along the entry.
UniProt P04757, 26-499 limits assumed: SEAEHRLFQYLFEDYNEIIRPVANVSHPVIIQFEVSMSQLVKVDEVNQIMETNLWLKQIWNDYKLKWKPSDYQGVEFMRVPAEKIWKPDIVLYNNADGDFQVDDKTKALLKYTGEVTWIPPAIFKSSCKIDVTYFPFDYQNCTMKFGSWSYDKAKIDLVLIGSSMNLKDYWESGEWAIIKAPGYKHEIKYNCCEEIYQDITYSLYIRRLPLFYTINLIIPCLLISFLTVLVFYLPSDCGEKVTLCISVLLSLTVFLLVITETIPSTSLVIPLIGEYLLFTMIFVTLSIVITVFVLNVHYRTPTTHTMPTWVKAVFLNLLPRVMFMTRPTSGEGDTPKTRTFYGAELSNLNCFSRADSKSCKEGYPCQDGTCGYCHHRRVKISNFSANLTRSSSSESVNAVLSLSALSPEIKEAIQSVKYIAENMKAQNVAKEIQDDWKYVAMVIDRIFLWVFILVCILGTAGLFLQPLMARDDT
UniProt P04757, whole entry, looked up: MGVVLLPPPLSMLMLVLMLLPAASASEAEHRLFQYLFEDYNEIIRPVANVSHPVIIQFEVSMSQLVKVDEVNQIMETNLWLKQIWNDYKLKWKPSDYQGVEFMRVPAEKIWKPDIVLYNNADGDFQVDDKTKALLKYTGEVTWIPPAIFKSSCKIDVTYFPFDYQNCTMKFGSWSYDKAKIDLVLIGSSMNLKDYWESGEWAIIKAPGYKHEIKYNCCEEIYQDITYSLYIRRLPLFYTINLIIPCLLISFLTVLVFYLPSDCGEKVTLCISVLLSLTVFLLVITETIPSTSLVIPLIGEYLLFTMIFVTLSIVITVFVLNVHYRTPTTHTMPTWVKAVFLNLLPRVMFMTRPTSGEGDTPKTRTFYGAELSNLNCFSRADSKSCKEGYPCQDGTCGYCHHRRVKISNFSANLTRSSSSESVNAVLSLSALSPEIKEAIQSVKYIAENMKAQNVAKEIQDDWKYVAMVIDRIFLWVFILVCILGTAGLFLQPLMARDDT
UniProt P12390, 25-500 limits assumed: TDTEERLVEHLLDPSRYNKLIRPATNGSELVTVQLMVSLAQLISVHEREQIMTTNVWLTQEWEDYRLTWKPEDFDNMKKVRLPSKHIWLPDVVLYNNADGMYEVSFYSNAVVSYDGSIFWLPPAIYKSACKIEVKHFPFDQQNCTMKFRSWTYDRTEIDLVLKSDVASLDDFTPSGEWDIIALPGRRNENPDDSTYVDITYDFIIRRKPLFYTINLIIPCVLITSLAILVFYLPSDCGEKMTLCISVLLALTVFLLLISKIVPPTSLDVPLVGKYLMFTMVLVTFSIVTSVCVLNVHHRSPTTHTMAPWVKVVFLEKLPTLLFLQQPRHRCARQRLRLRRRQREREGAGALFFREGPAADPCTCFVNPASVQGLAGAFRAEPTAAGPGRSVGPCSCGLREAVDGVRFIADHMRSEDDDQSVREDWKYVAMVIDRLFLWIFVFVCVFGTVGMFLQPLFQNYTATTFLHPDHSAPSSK
UniProt P12390, whole entry, looked up: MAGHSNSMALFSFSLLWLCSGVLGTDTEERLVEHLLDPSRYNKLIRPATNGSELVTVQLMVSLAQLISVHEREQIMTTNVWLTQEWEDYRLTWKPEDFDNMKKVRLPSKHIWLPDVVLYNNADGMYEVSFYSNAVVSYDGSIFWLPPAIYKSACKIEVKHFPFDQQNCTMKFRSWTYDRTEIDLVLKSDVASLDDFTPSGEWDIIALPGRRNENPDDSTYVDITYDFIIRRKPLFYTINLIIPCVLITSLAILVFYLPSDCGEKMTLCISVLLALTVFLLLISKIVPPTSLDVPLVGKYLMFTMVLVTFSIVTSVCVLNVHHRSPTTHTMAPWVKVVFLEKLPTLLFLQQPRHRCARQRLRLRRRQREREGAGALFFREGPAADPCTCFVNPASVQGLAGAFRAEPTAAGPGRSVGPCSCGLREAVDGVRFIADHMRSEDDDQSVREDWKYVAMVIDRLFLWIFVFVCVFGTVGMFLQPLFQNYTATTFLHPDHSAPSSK
UniProt P43143, whole entry M241L/F253L/V303I/V320I/I327V/A333T/K339T, looked up: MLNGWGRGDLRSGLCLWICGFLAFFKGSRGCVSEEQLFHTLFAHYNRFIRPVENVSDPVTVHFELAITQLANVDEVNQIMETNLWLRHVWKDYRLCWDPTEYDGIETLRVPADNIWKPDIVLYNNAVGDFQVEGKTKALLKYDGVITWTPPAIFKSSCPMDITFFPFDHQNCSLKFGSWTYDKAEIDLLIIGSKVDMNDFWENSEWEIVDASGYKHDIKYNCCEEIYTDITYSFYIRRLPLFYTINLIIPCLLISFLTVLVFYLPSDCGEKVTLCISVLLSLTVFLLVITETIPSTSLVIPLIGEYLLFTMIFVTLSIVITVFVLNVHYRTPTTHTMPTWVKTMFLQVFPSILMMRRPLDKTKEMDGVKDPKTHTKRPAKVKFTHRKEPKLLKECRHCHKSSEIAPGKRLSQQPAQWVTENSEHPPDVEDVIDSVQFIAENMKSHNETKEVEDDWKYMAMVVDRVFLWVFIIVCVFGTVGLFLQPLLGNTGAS
UniProt P15390, whole entry: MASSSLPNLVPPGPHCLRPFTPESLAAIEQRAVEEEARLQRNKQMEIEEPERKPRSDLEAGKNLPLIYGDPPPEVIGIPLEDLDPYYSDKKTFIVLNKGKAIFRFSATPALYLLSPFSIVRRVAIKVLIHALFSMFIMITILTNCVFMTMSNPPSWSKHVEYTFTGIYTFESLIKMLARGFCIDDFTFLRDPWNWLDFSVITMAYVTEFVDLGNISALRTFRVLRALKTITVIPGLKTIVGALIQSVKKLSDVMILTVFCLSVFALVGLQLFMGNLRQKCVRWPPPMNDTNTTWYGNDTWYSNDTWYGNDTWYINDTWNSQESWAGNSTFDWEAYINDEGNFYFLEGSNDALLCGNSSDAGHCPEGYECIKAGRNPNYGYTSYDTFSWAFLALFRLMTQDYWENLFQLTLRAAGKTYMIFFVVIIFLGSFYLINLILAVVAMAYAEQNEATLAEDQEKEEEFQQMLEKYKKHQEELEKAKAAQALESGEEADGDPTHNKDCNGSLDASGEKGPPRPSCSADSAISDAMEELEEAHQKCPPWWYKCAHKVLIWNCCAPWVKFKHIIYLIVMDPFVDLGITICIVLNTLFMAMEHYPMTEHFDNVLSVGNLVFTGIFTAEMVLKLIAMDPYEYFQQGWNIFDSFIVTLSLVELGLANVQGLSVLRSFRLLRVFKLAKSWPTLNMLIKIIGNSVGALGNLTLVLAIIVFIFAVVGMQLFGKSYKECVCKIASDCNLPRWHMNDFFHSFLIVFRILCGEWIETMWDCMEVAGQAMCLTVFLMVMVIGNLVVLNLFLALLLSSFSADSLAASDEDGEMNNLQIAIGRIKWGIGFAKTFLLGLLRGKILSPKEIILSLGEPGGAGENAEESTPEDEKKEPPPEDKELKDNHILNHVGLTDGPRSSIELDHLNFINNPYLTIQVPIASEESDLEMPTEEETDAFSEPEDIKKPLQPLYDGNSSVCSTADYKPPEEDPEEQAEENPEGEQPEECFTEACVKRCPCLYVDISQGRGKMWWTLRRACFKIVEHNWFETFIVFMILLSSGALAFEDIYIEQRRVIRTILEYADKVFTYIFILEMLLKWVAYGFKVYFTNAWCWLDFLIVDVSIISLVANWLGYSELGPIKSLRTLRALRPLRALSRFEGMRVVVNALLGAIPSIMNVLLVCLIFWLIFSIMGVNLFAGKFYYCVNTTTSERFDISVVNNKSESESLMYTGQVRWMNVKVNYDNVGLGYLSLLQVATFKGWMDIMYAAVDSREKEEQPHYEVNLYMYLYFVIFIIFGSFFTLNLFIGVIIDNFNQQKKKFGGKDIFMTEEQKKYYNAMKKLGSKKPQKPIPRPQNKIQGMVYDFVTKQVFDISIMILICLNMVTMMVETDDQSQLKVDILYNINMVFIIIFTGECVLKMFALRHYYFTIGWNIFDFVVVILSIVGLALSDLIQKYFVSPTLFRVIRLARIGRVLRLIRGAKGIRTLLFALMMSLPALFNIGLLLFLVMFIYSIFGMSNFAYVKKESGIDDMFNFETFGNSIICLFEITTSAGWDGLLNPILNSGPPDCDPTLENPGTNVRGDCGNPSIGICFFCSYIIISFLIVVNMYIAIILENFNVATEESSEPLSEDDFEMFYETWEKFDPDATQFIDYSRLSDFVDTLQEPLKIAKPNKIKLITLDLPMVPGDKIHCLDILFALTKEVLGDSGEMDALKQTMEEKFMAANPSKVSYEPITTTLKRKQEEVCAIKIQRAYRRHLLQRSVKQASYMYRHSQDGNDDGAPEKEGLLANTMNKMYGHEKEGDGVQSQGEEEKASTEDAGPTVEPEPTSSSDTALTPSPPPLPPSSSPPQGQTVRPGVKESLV

Compound | tested on | assay | system | conditions | endpoint | result
CC(C)C[C@H](NC(=O)[C@@H](NC(=O)COc1ccc(N(C)C)cc1)C(C)C)C(=O)N[C@@H](C[C@@H]1CCNC1=O)C(=O)c1nc2ccccc2s1 | rep R3428I 3C-like proteinase | enzyme activity, inhibitor, HPLC | – | 60 min, 37 °C, together with: substrate 111 µM | IC50 | 0.65 µM
NC(=O)c1cccc2c1-c1ccccc1C2=O | Ricin, A chain (Ricinus communis, UniProt P02879) | ribosome depurination, inhibitor | yeast ribosomes | pH 7.4 | IC50 | > 400 µM
O=C(/C=C/c1ccccc1)N[C@H](COC(=O)c1ccccc1)C(=O)N1CCCCC1 | rep R3428I 3C-like proteinase | enzyme activity, inhibitor, HPLC substrate depletion | – | pH 4.0 | IC50 | > 1600 µM
CC(C)C[C@H](NC(=O)[C@@H](NC(=O)Oc1ccccc1)C(C)C)C(=O)N[C@@H](C[C@@H]1CCNC1=O)C(=O)c1nccs1 | rep R3428I 3C-like proteinase | enzyme activity, inhibitor, HPLC | – | 60 min, 37 °C, together with: substrate 111 µM | IC50 | 85 µM
CC[C@H](C)[C@@H]1NC(=O)[C@H](CCC(=O)O)NC(=O)[C@@H]2CCCN2C(=O)[C@H](Cc2c[nH]cn2)NC(=O)[C@H](CCCCC(=O)O)NC(=O)[C@H](CC(C)C)NC(=O)[C@H](Cc2c[nH]cn2)NC(=O)[C@@H]2CSSC[C@H](NC(=O)CN)C(=O)N[C@@H](CSSC[C@@H](C(N)=O)NC1=O)C(=O)N[C@@H](CO)C(=O)N[C@@H](Cc1c[nH]cn1)C(=O)N1CCC[C@H]1C(=O)N[C@@H](C)C(=O)N2 | Neuronal acetylcholine receptor; alpha3/beta2 (Rattus norvegicus, UniProt P04757+P12390) | ion current, antagonist, two-electrode voltage clamp | Xenopus laevis oocytes | together with: 100 µM acetylcholine | IC50 | 0.00057 µM
NC12CC3CC(CC(C3)C1)C2 | Influenza A virus | viral replication, plaque size reduction | MDCK, A/Swine/Illinois/21-1230/2009 (H1N1pdm09) | – | EC50 | > 100 µM
O=C(/C=C/c1ccccc1)N[C@@H](CO)C(=O)NC1CCCCC1 | rep R3428I 3C-like proteinase | enzyme activity, inhibitor, HPLC substrate depletion | – | pH 4.0 | IC50 | 1500 µM
CC(C)C[C@@H]1NC(=O)[C@H](CCC(=O)O)NC(=O)[C@@H]2CCCN2C(=O)[C@H](Cc2c[nH]cn2)NC(=O)[C@H](CC(N)=O)NC(=O)[C@H](C(C)C)NC(=O)[C@H](Cc2ccc(O)cc2)NC(=O)[C@@H]2CSSC[C@H](NC(=O)CN)C(=O)N[C@@H](CSSC[C@@H](C(N)=O)NC1=O)C(=O)N[C@@H](CO)C(=O)N[C@@H](Cc1c[nH]cn1)C(=O)N1CCC[C@H]1C(=O)N[C@@H](C)C(=O)N2 | Chrna3/Chrnb2/Chrna6, with beta3 subunit (Rattus norvegicus, UniProt P04757+P12390+P43143) | ion current, antagonist, two-electrode voltage clamp | Xenopus laevis oocytes | together with: 100 µM acetylcholine | IC50 | 0.013 µM
CC(C)C[C@@H]1NC(=O)[C@H](CC(N)=O)NC(=O)[C@H](CCCCN)NC(=O)[C@@H]2CSSC[C@H](NC(=O)[C@@H](N)CCCNC(=N)N)C(=O)N[C@H]3CSSC[C@H](NC(=O)[C@H](CCCCN)NC1=O)C(=O)N[C@H](C(=O)N[C@@H](C)C(N)=O)CSSC[C@H](NC(=O)[C@H](CO)NC(=O)CNC(=O)[C@H](CCCCN)NC(=O)[C@H](CCCCN)NC(=O)CNC(=O)[C@H]([C@@H](C)O)NC3=O)C(=O)N[C@@H](CO)C(=O)NCC(=O)N[C@@H](CCCNC(=N)N)C(=O)N[C@@H](C)C(=O)N2 | Sodium channel protein type 4 subunit alpha (Scn4a, Rattus norvegicus, UniProt P15390) | sodium current, blocker, two-electrode voltage clamp | Xenopus oocytes expressing Scn4a | room temperature, holding -80 mV, steps to 0 mV | IC50 | 0.007 µM
